Results gathered from unrelated publications.
Numbered parts are unrelated; each lists some results of a single study. Positions count from the first letter of the parent shown.

Sample 1
Target: RNA binding protein fox-1 homolog 2, RRM domain, GST-SBP tag (RBFOX2, Homo sapiens, UniProt O43251-10, residues 100-194)
Technique: RNA Bind-n-Seq
Form: RNA
Matrix: in vitro
Concentration: 365 nM
Setting: natural RNA segment, single round, ends assumed
Baseline: no-protein control
Reading: higher = stronger binding
Constant ends, left off below: GGGAGUUCUACAGUCCGACGAUC … UGGAAUUCUCGGGUGCCAA
Residues (chain): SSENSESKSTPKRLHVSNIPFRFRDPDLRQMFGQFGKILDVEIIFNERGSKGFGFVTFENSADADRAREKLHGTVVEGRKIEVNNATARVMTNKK
Strand | RBNS enrichment (R)
UUGCUGGAACAGGACGGUUUGGAUGUUUAUAGGGGAAAUGGAUAGUAGAUGUUAGGACCAACUGAGAAGGUCCAACACAAGUGUGGAUUUUUCCAUGUGUCAAAAAUCUC | 0.761
CUUAAUGUCCCUAUCUGUGGUGUGUGUGCACUUGCUGUGACCUUCCCAGUAGUCCCUCCAUGACAGAAAACACUCCCAUGAGUCUCGAGGGAAAGCCAAGAAUAAAUGUC | 0.677
ACCAAUGGGUCCCCUAUAUCUCUCUAGAGGAACGUGAGACCCACUCCAAACAUCUAAAGCAACUGUCGAGUUGCUGUCCCCUAAAAAAAGUAAAUAAAAUACAUAUUUGA | 0.554
AUAUGAUUUUCUUAUAAAACAGAAAAGAAUUAUAAGAAUAUAUUGAAAAUAAAAGAAUUGAAAGGUACUUGUUGAUAGAGUCAUAUAUUACUUAUUGGUAUGUAUACUGA | 0.613
GAGGUGCUGUCUAUAAAGCCCCCCCGGGGGCUAACCUUUGCUCAGAUUCUUAAAAAGCAGUGGUUAAUUUGCUGGCUUUUCAAACCCUGCCCGCCCUGGUUUGCCUGCGG | 0.447
AGGAUUUUGGAUGUAUAAUCUAAAACUCAACAAUAAAGAAAUAAUAUUCCAAGUCUCUGGUUUCCUAAGAUACAUAAUAACUGUUUAUAAAGAAGGUCUAAGAGCUGAUA | 0.336
GCCAUUUCAAACAGUUCCAGUGACCUACUCCUUUUAAGUUGGACACCGAGGCCAAAGGCUGCCUCAGCCUUCCCAGCCCAUCCACUCAGCUGUUACCACCCUCUCAGCCU | 0.377
GUAACUCUUGAUGGCAUUUCCCUUCUGAGUGAAGAUUUGAAAUAUGAUUGAUUAGAAUUGUGCUCUUGAUGGCUGGGAAUUUAGAAAUUUUAUUUUAAGAGUUAUUUCAU | 0.641

Sample 2
Target: ATF1, bZIP domain (human)
Technique: DHFR protein complementation
Matrix: yeast
Setting: single substitutions, most at no-binding floor
Baseline: wild-type JUN-FOS pair
Reading: higher = stronger binding
Starting sequence: JUN, bZIP domain (human); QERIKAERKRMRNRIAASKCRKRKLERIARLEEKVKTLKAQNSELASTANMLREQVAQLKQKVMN; partner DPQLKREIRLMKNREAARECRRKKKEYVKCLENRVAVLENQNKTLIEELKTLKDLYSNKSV
Change | binding fitness [natural log]
V35C | -1.61
E33W | -1.56
A49S | -1.49
A57Y | -1.43
N42R | -1.51
N42C | -1.57
S47E | -1.5
K36H | -1.31
K36W | -1.49
S47P | -1.49
N42I | -1.53
A57K | -1.47
K34C | -1.58
A40E | -1.32
N42D | -1.46
V56W | -1.51
Q55K | -1.57

Sample 3
Target: Interferon regulatory factor 7, full length, phosphomimetic (IRF7, Homo sapiens, UniProt Q92985, residues 1-503, S101K/S471D/S472D/S475D/S476D/S477D/S483D/S484D/S487D)
Sequence of UniProt Q92985 (whole entry, unmodified, looked up): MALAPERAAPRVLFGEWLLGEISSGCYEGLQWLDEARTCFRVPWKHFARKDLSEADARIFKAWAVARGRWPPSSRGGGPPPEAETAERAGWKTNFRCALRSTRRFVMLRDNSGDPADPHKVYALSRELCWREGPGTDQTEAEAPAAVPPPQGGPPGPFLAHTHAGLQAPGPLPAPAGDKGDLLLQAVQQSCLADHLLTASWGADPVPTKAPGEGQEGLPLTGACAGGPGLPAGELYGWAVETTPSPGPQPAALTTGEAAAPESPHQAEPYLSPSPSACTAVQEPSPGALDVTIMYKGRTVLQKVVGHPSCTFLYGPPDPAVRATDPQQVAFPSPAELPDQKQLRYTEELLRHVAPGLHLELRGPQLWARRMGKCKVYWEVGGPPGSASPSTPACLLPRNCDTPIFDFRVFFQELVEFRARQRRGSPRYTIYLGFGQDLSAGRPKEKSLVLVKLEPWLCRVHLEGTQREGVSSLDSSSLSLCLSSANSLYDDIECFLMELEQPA
Technique: protein-binding microarray
Form: double-stranded DNA, one strand shown
Matrix: in vitro
Concentration: 250 nM
Setting: 60-bp whole probe
With: salmon DNA 0.4 mg/ml
Baseline: random background probes
Reading: higher = stronger binding
Constant ends, left off below: GCCTAGCAC … GTCTTGATTCGCTTGACGCTGCTG
Strand | log fluorescence
CGAGATCTCCGAGATGCCTTCGTGCTA | -3.03e-05 z-score
TGAGGTCTCGGTCTCGGTTAGTGCTAG | 1.78 z-score
GACGATATCGGAACTGGAGACGTGCTA | 0.169 z-score
ATTCCTCTCACCTCGGCCTCGTGCTAG | 1.43 z-score
GACGGTATCAGTATCGAGACGTGCTAG | 0.00699 z-score
TTAGGGTTCGGGTTTCGGTTAGTGCTA | 7.55 z-score
TCACCTTTCAGTTTTCCACTGTGCTAG | 1.11 z-score
TCTTTTATTTTTTTTATTTAGTGCTAG | 2.32 z-score
TAAGGTATCCTTTTCCTTTAGTGCTAG | 1.79 z-score
TGAGGTATCGGTCTCGGTTAGTGCTAG | 1.23 z-score
TCATTCCTCTCACCTCGGACTGTGCTA | 1.7 z-score
TCAATTTCCATTTTCTAACTGTGCTAG | 2.65 z-score
GACGATAGCAGTTTCGAGACGTGCTAG | 3.23 z-score
GACGGTCGCGGTCTCGGGACGTGCTAG | -0.222 z-score
GACGATTTCAGTCTCGGGACGTGCTAG | 0.19 z-score
TCATAACTCATTCTCTGACTGTGCTAG | 0.612 z-score
TTAGGTCTCCTGCTGCTTTAGTGCTAG | -0.447 z-score
TTAGGTCTCGGACTTGGTTAGTGCTAG | 0.497 z-score
TTAGATATCGGGGATCGATTAGTGCTA | 0.316 z-score

Sample 4
Organism: Saccharomyces cerevisiae
Read-out: peptide binding
Technique: yeast competitive growth sequencing
Form: peptide
Strain: cyclin F-Cln2 fusion
Concentration: concentration not given
Setting: tiling library, Cln2-subtracted
Reading: direction not given
Molecule | binding score
IPDRSTKPVVFSPT | -0.0998
KRNLLNEFDRII | 2.25
EPKTLFLGAGDFQF | 0.768
RKLDLEGIGR | 3.63
KRCATPVIIDEILPSK | -0.0794
ALLRRLQDVANDRGSH | 0.426
TSSAQRRLEIPSGGAD | 1.62
QDYERRLLRQIVIQNE | -0.17
PKNAKRNLSSEFAN | 0.36
PHKTFRKLRLFDTPHT | 1.27
NCKKRRALDFLSRLPL | 1.53
PPKPLKKLRFDIEGSD | 0.716
LFVPQRKLEVSTEDVH | 0.715
ARKRLELGNLGNPQ | 1.97
SDSTVTKLDFDLEP | -0.0183
VLLKRLQDVVSERANH | 0.301
GPVKLEFDVSDGAT | 1.15

A few entries again (sample 4):
Molecule | binding score
IPDRSTKPVVFSPT | -0.0998
KRNLLNEFDRII | 2.25
EPKTLFLGAGDFQF | 0.768
RKLDLEGIGR | 3.63
